Measured values of several laboratories.
Every numbered part comes from another study and shows a few of its results, in no order. Several values in a cell are separate wells, animals, samples, runs or records. Changes are numbered by the printed parent chain.
Chain of UniProt O75716 (whole entry, looked up): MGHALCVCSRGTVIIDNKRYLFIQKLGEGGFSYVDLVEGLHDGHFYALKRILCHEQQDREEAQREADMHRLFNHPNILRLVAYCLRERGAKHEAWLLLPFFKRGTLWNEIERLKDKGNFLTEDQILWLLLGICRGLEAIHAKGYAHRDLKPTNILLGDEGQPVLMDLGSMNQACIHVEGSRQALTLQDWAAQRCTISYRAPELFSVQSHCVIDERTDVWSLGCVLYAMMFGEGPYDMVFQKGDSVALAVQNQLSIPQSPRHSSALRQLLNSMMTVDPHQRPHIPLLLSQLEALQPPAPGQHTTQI
Chain of UniProt Q8NE63 (whole entry, looked up): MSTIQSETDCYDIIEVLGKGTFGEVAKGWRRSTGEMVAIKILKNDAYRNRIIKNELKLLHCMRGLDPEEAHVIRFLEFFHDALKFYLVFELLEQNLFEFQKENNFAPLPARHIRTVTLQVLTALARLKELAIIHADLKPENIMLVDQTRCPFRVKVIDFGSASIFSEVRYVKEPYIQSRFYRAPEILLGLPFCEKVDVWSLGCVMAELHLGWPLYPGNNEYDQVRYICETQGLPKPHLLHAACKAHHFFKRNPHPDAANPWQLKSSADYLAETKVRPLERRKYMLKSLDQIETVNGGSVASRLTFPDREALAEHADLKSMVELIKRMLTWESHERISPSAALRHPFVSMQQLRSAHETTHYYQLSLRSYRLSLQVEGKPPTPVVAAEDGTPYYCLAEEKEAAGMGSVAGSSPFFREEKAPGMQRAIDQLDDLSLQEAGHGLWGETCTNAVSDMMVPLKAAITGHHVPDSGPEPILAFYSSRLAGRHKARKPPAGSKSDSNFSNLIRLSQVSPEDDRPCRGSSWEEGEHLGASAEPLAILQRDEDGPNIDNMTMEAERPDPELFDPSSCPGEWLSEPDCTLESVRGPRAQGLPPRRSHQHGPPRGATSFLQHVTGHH
Chain of UniProt P51451 (whole entry, looked up): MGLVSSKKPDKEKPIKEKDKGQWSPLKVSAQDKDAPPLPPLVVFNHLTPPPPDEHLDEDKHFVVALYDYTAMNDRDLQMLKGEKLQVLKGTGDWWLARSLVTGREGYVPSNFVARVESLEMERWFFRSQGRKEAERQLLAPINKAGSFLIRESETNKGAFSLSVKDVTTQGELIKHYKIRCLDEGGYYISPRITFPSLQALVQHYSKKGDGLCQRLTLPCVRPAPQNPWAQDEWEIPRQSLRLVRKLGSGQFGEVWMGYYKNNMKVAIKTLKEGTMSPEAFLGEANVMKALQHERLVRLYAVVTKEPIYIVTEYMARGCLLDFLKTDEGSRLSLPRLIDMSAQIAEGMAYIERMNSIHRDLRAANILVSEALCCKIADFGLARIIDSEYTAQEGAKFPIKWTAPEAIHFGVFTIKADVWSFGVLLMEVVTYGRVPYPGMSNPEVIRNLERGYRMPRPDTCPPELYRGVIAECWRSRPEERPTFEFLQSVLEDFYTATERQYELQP
Chain of UniProt P61075 (whole entry, looked up): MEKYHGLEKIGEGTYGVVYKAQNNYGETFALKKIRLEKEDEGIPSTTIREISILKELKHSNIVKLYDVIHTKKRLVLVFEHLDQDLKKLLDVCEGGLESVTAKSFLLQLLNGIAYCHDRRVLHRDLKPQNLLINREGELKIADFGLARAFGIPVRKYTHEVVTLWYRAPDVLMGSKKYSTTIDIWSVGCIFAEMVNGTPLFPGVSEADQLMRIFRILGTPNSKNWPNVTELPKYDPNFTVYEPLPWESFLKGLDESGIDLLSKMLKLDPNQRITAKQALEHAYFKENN
Chain of UniProt P62344 (whole entry, looked up): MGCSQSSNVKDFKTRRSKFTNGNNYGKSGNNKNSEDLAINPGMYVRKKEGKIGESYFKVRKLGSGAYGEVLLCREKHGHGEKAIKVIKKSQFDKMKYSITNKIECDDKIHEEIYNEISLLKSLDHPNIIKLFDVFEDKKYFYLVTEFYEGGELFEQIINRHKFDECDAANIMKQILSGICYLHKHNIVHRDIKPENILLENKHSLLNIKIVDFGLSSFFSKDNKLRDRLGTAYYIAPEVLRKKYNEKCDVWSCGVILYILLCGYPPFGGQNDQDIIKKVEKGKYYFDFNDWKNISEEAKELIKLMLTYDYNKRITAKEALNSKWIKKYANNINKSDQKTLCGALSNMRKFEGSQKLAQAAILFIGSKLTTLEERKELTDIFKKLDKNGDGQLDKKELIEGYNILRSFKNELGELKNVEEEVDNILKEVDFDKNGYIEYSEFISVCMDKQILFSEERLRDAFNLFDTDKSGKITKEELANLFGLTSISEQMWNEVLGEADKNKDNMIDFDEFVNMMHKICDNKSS
Chain of UniProt Q9UK32 (whole entry, looked up): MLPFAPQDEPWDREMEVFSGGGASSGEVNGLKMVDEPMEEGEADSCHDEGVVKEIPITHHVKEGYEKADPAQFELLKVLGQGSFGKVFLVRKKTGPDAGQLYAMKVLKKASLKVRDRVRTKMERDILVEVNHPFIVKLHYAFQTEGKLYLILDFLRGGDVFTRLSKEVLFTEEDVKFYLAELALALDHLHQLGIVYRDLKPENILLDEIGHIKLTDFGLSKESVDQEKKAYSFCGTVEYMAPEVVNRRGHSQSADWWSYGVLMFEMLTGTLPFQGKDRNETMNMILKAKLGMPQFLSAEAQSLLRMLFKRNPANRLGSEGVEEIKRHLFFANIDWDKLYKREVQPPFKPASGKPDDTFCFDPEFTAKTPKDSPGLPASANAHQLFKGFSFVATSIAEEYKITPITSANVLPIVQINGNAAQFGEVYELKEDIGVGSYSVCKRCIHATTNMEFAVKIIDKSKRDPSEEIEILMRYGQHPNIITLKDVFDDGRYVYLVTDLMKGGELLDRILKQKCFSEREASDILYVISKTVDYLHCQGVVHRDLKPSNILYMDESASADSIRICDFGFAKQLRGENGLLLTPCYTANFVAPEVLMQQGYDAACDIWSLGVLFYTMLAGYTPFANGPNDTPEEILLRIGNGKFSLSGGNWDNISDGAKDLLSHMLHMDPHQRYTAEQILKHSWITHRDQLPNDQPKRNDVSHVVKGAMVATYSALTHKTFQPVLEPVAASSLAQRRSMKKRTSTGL
Chain of UniProt P29376 (whole entry, looked up): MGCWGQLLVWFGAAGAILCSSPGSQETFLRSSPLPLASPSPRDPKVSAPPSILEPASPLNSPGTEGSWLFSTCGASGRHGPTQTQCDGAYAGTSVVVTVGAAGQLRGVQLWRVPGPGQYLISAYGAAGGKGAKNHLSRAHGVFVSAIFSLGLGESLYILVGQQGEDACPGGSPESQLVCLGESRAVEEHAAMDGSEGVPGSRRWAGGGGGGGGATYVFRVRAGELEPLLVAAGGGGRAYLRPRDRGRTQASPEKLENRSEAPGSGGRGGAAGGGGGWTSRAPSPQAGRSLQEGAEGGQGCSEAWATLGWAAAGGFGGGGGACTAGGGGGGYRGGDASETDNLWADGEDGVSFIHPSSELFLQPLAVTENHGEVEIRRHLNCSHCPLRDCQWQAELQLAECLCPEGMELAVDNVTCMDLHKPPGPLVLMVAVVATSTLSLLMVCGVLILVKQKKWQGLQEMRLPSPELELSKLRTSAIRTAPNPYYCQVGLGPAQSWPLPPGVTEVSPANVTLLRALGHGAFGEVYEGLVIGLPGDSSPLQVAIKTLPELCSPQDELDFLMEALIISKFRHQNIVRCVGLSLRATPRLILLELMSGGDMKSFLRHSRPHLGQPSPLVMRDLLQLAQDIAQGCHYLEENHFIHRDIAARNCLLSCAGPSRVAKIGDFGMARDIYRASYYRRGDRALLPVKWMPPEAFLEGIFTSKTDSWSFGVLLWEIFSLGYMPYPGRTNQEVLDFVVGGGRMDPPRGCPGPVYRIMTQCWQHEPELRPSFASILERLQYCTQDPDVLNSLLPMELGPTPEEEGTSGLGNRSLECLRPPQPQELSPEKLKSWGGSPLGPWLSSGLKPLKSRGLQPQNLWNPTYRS

Block 1
Structure (SMILES): N/C(=N\[N+](=O)[O-])N/N=C\c1ccc(-c2cccc([N+](=O)[O-])c2)o1
Effect on: enzyme activity
Mode: inhibitor
Tested at: 0.5 µM
target	method	relative to	remaining activity
Serine/threonine-protein kinase 16 (STK16, Homo sapiens, UniProt O75716)		control	105%
Leukocyte tyrosine kinase receptor (LTK, Homo sapiens, UniProt P29376)	radiometric		102%
Ribosomal protein S6 kinase alpha-6 (RPS6KA6, Homo sapiens, UniProt Q9UK32)		control	96.9%
Tyrosine-protein kinase Blk (BLK, Homo sapiens, UniProt P51451)		control	102%
Homeodomain-interacting protein kinase 4 (HIPK4, Homo sapiens, UniProt Q8NE63)		control	102%

Block 2
Target: CCND1, cyclin fold, Cln2 fusion (human)
Method: yeast growth competition, sequencing
Medium: yeast
Setting: weak parent motif
Relative to: not given
Reading: higher = stronger binding
Starting sequence: viral docking peptide; KKVKRRLFETREL; partner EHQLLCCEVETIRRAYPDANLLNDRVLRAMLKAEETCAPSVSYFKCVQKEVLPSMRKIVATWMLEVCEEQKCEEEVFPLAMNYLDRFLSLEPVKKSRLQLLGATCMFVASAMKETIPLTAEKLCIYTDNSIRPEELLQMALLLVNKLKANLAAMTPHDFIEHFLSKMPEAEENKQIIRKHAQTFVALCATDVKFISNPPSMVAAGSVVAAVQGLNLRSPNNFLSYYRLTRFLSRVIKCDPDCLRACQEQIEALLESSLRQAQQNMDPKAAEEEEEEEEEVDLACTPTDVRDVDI
Variant	normalised enrichment score
K2A	0.342
R11A	0.286
F8A	-0.369
L7A	0.179
E12A	0.24
E9A	0.252
L13A	0.0815
F8L	0.0333

Mixed results
Compound	tested on	effect on	method	tested at	with	measurement	value
CC(C)S(=O)(=O)c1ccc2nccc(Nc3ccc4scnc4c3)c2c1	L929	necroptosis protection	CCK-8	0.039 µM	TNF-α plus zVAD	viability	12.9%
CCCOc1ccc([C@H]2[C@H](C(=O)O)[C@@H](c3ccc4c(c3)OCO4)CN2CC(=O)Nc2c(CC)cccc2CC)cc1	Calcium-dependent protein kinase 1 (CDPK1, Plasmodium falciparum, UniProt P62344)	cell-free assay	competition with immobilised ligand	1 µM		remaining binding	88%
CC(C)S(=O)(=O)c1ccc2nccc(Nc3ccc4sc(C5CCCC5)nc4c3)c2c1.Cl	L929		CCK-8	3.125 µM		viability	101% and 97.7% and 100% and 103% and 102%
CC(=O)N1CCC(c2ccc(C(=O)NC(=N)N)cc2C(F)(F)F)CC1	Cyclin-dependent kinase 2 homolog (CRK2, Plasmodium falciparum, UniProt P61075)	cell-free assay	competition with immobilised ligand	1 µM		remaining binding	100%
N#Cc1c(Oc2ccc(F)c(NC(=O)Cc3cccc(C(F)(F)F)c3)c2)ccc2nc(NC(=O)C3CC3)sc12	L929	necroptosis protection	CCK-8	0.039 µM	TNF-α-induced	viability	24.8%
CC(C)(C)c1nc(-c2cccc(NS(=O)(=O)c3c(F)cccc3F)c2F)c(-c2ccnc(N)n2)s1	L929	necroptosis protection	CCK-8	6.25 µM	TNF-α-induced	viability	45.5%
